# Measured values from different studies.
# Numbers after ± are the reported error.
SMILES,cell line,test,test system,conditions,how to read,quantity,result
COc1c(C(=O)/C=C/c2ccccc2)ccc2occc12,differentiated SH-SY5Y,MTT,,0.1 µM,baseline: control,viability,102 ± 4.2%
CC(C)(C)c1ccc(S(=O)(=O)N2CC2C(N)=O)cc1 (centres unmarked),Balb/c 3T3 fibroblasts,"cytotoxicity, neutral red uptake",DMEM with 5% FBS,24 h,,IC50,20 ± 2 µM
CCCO[C@H]1[C@H](O)[C@@H](N)[C@@H](O[C@H]2[C@H](O[C@@H]3O[C@H](CO)[C@@H](O[C@H]4O[C@@H](CN)[C@@H](O)[C@H](O)[C@H]4N)[C@H]3O)[C@@H](O)[C@H](N)C[C@@H]2N)O[C@@H]1CO,NIH 3T3,alamarBlue,,concentration not given,,cytotoxicity,not toxic
COc1c(C(=O)/C=C(\O)c2ccccc2)ccc2c1C=CC(C)(C)O2,differentiated SH-SY5Y,MTT,,1 µM,baseline: control,viability,100 ± 2.5%
CCCCn1cc(C(=O)O)c(=O)c2cc(F)c(Nc3ccccc3Cl)c(N)c21,K562,"cell growth, SRB",,72 h,,IC50,33.1 ± 5.6 µg/mL
Cc1ncsc1-c1ccc([C@H](C)NC(=O)[C@@H]2C[C@@H](O)CN2C(=O)[C@@H](NC(=O)CN2CCC(CN3CCN(CCC(=O)N4CCN(c5ncc(-c6cc(NC(=O)c7ccc(F)cc7C(F)(F)F)c(N7C[C@@H](C)N(C)[C@@H](C)C7)cc6F)cn5)CC4)CC3)CC2)C(C)(C)C)cc1,Sf9,LC-MS,,"10 µM, 24 h",baseline: total recovery,cellular fraction of compound,14%
O=C(CN1CCCC2=CC3CC(CN4CCCCC34)C21)Nc1ccc(Br)cc1 (centres unmarked),Huh-7,cytotoxicity,,,,CC50,> 267 µM
COC(=O)C1CN1S(=O)(=O)c1ccc(F)cc1F (centres unmarked),Balb/c 3T3 fibroblasts,"cytotoxicity, neutral red uptake",DMEM with 5% FBS,24 h,,IC50,60 ± 5 µM
CC(C)C[C@H](NC(=O)[C@@H]1CSCC(=O)N[C@@H](CCCCN)C(=O)N[C@@H](CC(C)C)C(=O)N[C@@H](CC(C)C)C(=O)N[C@H]2CCCCNC(=O)[C@H](CC(C)C)NC(=O)[C@H](CC(C)C)NC(=O)[C@H](CCCCN)NC(=O)CSC[C@H](NC(=O)[C@H](CC(C)C)NC(=O)[C@H](CC(C)C)NC(=O)[C@H](CCCCN)NC2=O)C(=O)N[C@@H](CCCCN)C(=O)N[C@@H](CCCCN)C(=O)N[C@@H](CCCCN)C(=O)N1)C(N)=O,human red blood cells,,,"4 h, pH 7.4, room temperature",,minimal haemolytic concentration,2000 µg/mL
CN(C)c1ccc2c(c1)Oc1cc(N(C)C)ccc1C21OC(=O)c2cc(C(=O)NCC(=O)N[C@H](CCCNC(=N)N)C(=O)N[C@H](CCCCN)C(=O)N[C@H](CCCCN)C(=O)N[C@H](CCCNC(=N)N)C(=O)N[C@H](CCCNC(=N)N)C(=O)N[C@H](CCC(N)=O)C(=O)N[C@H](CCCNC(=N)N)C(=O)N[C@H](CCCNC(=N)N)C(=O)N[C@H](CCCNC(=N)N)C(=O)O)ccc21,caveolin-1 KO mouse endothelioma,,,"10 µM, 37 °C, TAMRA-labelled",baseline: wild type,cellular uptake,no effect
COCC12C(=O)NC3C4(C(OC)CC1O)C1CC5(O)C(OC)C(O)C(OC(C)=O)(C1C5OC(=O)c1ccccc1)C3(O)C(OC)C24 (centres unmarked),PC-12 transfected with EGFP-MK5,,,20 µM,,cytotoxicity,not toxic
CC1CN1c1cc(O)c2nc(N)sc2c1 (centres unmarked),normal CD34+ bone marrow cells,colony formation,,"up to 12 µM, 10 days",,toxicity,not toxic
CC(=O)N(O)CCCP(=O)(O)O,mouse lymphoma L5178Y TK+/- 3.7.2C,TK locus mutation,,"25 µg/mL, 4 h, without S9",baseline: negative control,mean mutant frequency,128%
CC(C)[C@H](NC(=O)[C@H]1NC(=O)[C@H](CO)NC(=O)[C@H](CC(N)=O)NC(=O)[C@@H](N)Cc2c[nH]c3cc(ccc23)C1C(N)=O)C(=O)N[C@H]1Cc2cn(cn2)C(c2ccc(O)cc2)[C@@H](C(=O)N[C@@H](CCCNC(=N)N)C(=O)N[C@@H](Cc2ccccc2)C(=O)O)NC(=O)[C@H](CO)NC1=O (some centres unmarked),four human cell lines,,,up to 1 mg/mL,,cytotoxicity,not toxic
NC(=O)C1CN1S(=O)(=O)c1ccccc1 (centres unmarked),Balb/c 3T3 fibroblasts,"cytotoxicity, neutral red uptake",DMEM with 5% FBS,24 h,,IC50,56 ± 8 µM
COC1(c2ccccc2)CC(=O)c2c(cc3c(c2O)C=CC(C)(C)O3)O1 (centres unmarked),differentiated SH-SY5Y,MTT,,100 µM,baseline: control,viability,76.3 ± 4.7%
CN(C)c1ccc(C=Nn2c(-c3ccccc3)nc3ccccc3c2=O)cc1,MDCK,"cell morphology, microscopy",,,,minimum cytotoxic concentration,100 µg/mL
CC1(C)C=Cc2c(cc3oc(-c4ccccc4)cc(=O)c3c2O)O1,differentiated SH-SY5Y,MTT,,1 µM,baseline: control,viability,100 ± 4.1%
COC(=O)[C@H](CO)NC(=O)[C@H](CCCCN(CC(C)C)C1CC2CCC1C2)NC(=O)[C@H](CCCN1CCOCC1)NC(=O)[C@H](C1CCC1)N(C)C(=O)[C@H](Cc1ccccc1)NC(=O)c1ccc(C(C)(C)C)cc1 (some centres unmarked),mouse embryonic stem cells,"cytotoxicity, CellTiter-Glo",,48 h,,DC50,3.6 ± 1.8 µM
Nc1ncnc2c1c(Br)cn2[C@@H]1O[C@H](CO)[C@@H](O)[C@H]1O,MRC-5 SV2,"cytotoxicity, resazurin",medium with 5% FBS,72 h,,EC50,12 ± 2 µM
C[C@@H]1NC(=O)[C@H](CCC(=O)O)NC(=O)[C@@H]2CSSC[C@H](NC(=O)[C@H](CCCCN)NC(=O)CNC1=O)C(=O)N[C@@H](CO)C(=O)N[C@H]1CSSC[C@H](NC(=O)[C@H](CC(=O)O)NC(=O)[C@@H]3CSSC[C@H](NC(=O)[C@H](Cc4ccc(O)cc4)NC1=O)C(=O)N[C@@H](CC(=O)O)C(=O)N[C@@H](C)C(=O)NCC(=O)N[C@@H](CC(=O)O)C(=O)N3)C(=O)N[C@@H](CCCCN)C(=O)N2,OVCAR-3,CellTiter-Glo,,200 µM,,viability,~65%
CC[C@H](C)[C@H](NC(=O)[C@H](CCCCN)NC(=O)[C@H](CC(C)C)NC(=O)[C@H](C)NC(=O)[C@H](CC(C)C)NC(=O)[C@H](CO)NC(=O)[C@H](C)NC(=O)[C@H](CC(C)C)NC(=O)[C@H](Cc1ccccc1)NC(=O)[C@@H]1CCCN1C(=O)[C@H](CC(C)C)NC(=O)[C@H](Cc1ccccc1)NC(=O)[C@H](CCCCN)NC(=O)[C@H](CCCCN)NC(=O)[C@H](CCCCN)NC(=O)[C@H](CCCCN)NC(=O)[C@H](CCCCN)NC(=O)[C@@H](N)CCCCN)C(=O)N[C@@H](CC(C)C)C(N)=O,horse erythrocytes,,,"MIC against Staphylococcus aureus, 2 h, 37 °C",baseline: Triton X-100,haemolysis,17.8%
N=C(N)NCCC[C@@H]1NC(=O)[C@H](Cc2csc3ccccc23)NC(=O)[C@@H](Cc2ccccc2)NC(=O)[C@H](Cc2ccccc2)NC(=O)[C@H](CCC(=O)NCCOCCOCC(=O)N[C@@H](CCCCNC(=O)c2ccc3c(c2)C(=O)OC32c3ccc4cc(O)ccc4c3Oc3c2ccc2cc(O)ccc32)C(N)=O)NC(=O)[C@@H](CCCNC(=N)N)NC(=O)[C@H](CCCNC(=N)N)NC(=O)[C@@H](CCCNC(=N)N)NC1=O,HeLa,flow cytometry,,"0.5 µM, 2 h, 1% FBS",baseline: CPP12,cellular uptake,94 ± 10%
COC(=O)C1CN1S(=O)(=O)c1ccccc1C (centres unmarked),Balb/c 3T3 fibroblasts,"cytotoxicity, neutral red uptake",DMEM with 5% FBS,24 h,,IC50,380 ± 10 µM
CC(C)(CO)NCC1=C(O)C(=O)c2ccccc2C1=O,BGM cells,MTT,,concentration not given,,cytotoxicity,toxic
CC[C@H](C)[C@H](NC(=O)[C@@H](NC(=O)[C@H](CS)NC(=O)[C@H](C)NC(=O)[C@H](CC(N)=O)NC(=O)[C@H](CCCNC(=N)N)NC(=O)[C@H](CCCNC(=N)N)NC(=O)[C@H](CC(N)=O)NC(=O)[C@H](CCCNC(=N)N)NC(=O)[C@H](CCCNC(=N)N)NC(=O)[C@H](C)NC(=O)[C@H](CS)NC(=O)[C@H](CC(C)C)NC(=O)[C@@H](NC(=O)[C@@H](NC(=O)[C@H](CS)NC(=O)[C@H](CCCCN)NC(=O)[C@@H](N)CCCNC(=N)N)C(C)C)[C@@H](C)CC)C(C)C)C(=O)N[C@@H](CC(C)C)C(=O)N[C@@H](CS)C(=O)N[C@@H](CCCNC(=N)N)C(=O)O,human red blood cells,,,"128 µg/mL, 3 h, 37 °C",baseline: Triton X-100,hemolysis,6.52%
COc1ccc2c(=O)c(OC)c(-c3ccc(OC)c(OC)c3)oc2c1,differentiated SH-SY5Y,MTT,,1 µM,baseline: control,viability,102 ± 4.1%
CC(=O)N[C@@H](CO)C(=O)N[C@@H](CC(=O)O)C(=O)N[C@@H](CCCCNC(=O)CCCC[C@@H]1SC[C@@H]2NC(=O)N[C@@H]21)C(=O)N1CCC[C@H]1C(=O)O,A549,flow cytometry,,"40 µg/mL, 60 min, 37 °C",baseline: cells,cellular uptake,65.1 ± 2.3%
CCCCn1cc(C(=O)O)c(=O)c2cc(F)c(Nc3ccccc3Cl)c([N+](=O)[O-])c21,T47D,"cell growth, SRB",,72 h,,IC50,18.5 ± 0.59 µg/mL
COc1cc2c(c3oc(-c4ccccc4)cc(=O)c13)C=CC(C)(C)O2,differentiated SH-SY5Y,MTT,,10 µM,baseline: control,viability,102 ± 1.3%
C(#Cc1cncc(OC[C@@H]2CCN2)c1)c1ccccc1,Caco-2,Caco-2 permeability,,"100 µM, 2 h, pH 7.4, added: verapamil 100 µM",,Papp A to B,20.2 ± 0.02 ×10⁻⁶ cm/s
CCCCn1cc(C(=O)O)c(=O)c2cc(F)c(Nc3cccc(Cl)c3)c([N+](=O)[O-])c21,PANC-1,"cell growth, SRB",,72 h,,IC50,21.3 ± 2.63 µg/mL
COc1cc2c(=O)cc(-c3ccccc3)oc2c2c1OC(C)(C)C=C2,differentiated SH-SY5Y,MTT,,10 µM,baseline: control,viability,98.5 ± 2.1%
CCCCn1cc(C(=O)O)c(=O)c2cc(F)c3c(nnn3-c3cccc(Cl)c3)c21,K562,"cell growth or viability, SRB",,,,IC50,342 µM
C[C@H]1[C@H](OC(=O)CCC(=O)OCCc2ccc(O)cc2)O[C@@H]2O[C@@]3(C)CC[C@H]4[C@H](C)CC[C@@H]1[C@@]24OO3,C3PV normal primary fibroblasts,MTT,,concentration not given,,cytotoxicity,not toxic
CCCCn1cc(C(=O)O)c(=O)c2cc(F)c(Nc3cccc(Cl)c3)c(N)c21,T47D,"cell growth, SRB",,72 h,,IC50,6.02 ± 0.19 µg/mL
CC(C)(O)c1cc2c(ccc3c(=O)cc(-c4ccccc4)oc32)o1,differentiated SH-SY5Y,MTT,,100 µM,baseline: control,viability,85.4 ± 1.1%
CC[C@H](C)[C@H](NC(=O)[C@@H](CCCCN)NC(=O)[C@H](CCCCN)NC(=O)[C@H](Cc1ccccc1)NC(=O)[C@H](CC(C)C)NC(=O)[C@@H](CCCCN)NC(=O)[C@H](Cc1c[nH]c2ccccc12)NC(=O)[C@H](CCCCN)NC(C)=O)C(=O)NCC(=O)N[C@@H](C)C(=O)N[C@H](C(=O)N[C@@H](CC(C)C)C(=O)N[C@@H](CCCCN)C(=O)N[C@H](CCCCN)C(=O)N[C@@H](CC(C)C)C(N)=O)C(C)C,RAW264.7,"cell viability, MTT",,"1 h, 37 °C",,LD50,126 ± 11 µM

# Some of these lines once more:
SMILES,cell line,test,test system,conditions,how to read,quantity,result
CC1CN1c1cc(O)c2nc(N)sc2c1 (centres unmarked),normal CD34+ bone marrow cells,colony formation,,"up to 12 µM, 10 days",,toxicity,not toxic
CC(=O)N(O)CCCP(=O)(O)O,mouse lymphoma L5178Y TK+/- 3.7.2C,TK locus mutation,,"25 µg/mL, 4 h, without S9",baseline: negative control,mean mutant frequency,128%
CC(C)[C@H](NC(=O)[C@H]1NC(=O)[C@H](CO)NC(=O)[C@H](CC(N)=O)NC(=O)[C@@H](N)Cc2c[nH]c3cc(ccc23)C1C(N)=O)C(=O)N[C@H]1Cc2cn(cn2)C(c2ccc(O)cc2)[C@@H](C(=O)N[C@@H](CCCNC(=N)N)C(=O)N[C@@H](Cc2ccccc2)C(=O)O)NC(=O)[C@H](CO)NC1=O (some centres unmarked),four human cell lines,,,up to 1 mg/mL,,cytotoxicity,not toxic
